{"data": "Assay results of several laboratories", "note": "Compare with care: the assays were run in different laboratories. Several values in a cell are separate wells, animals, samples, runs or records. ± marks the error that the study gave."}
{"Structure (SMILES)": "CC1(C)C[C@@H](Nc2cccc(-c3sc(C(=O)O)c(OCC(=O)O)c3Cl)c2)CCN1S(=O)(=O)Cc1cccc(NC(=O)CN2CCC(c3ccc4c(c3)oc(=O)n4C3CCC(=O)NC3=O)CC2)c1 (some centres unmarked)", "cell line": "B16-F10", "assay": "HTRF, refers to: phospho-STAT1 Tyr701", "conditions": "0.005 µM, with: IFN-γ", "how to read": "baseline: DMSO", "measurement": "fold change", "result": "0.947 and 1 and 0.98 and 1.03 and 0.994 and 1.02"}
{"Structure (SMILES)": "CN(C)c1ccc(-n2cc(COC(=O)[C@@]3(C)C=C(C(=O)OC(C)(C)C)C(=O)CC3)nn2)cc1", "cell line": "HeLa", "assay": "quantitative western blot", "conditions": "concentration not given, 20 (unit not given), with: EGF", "measurement": "pRSK/tubulin ratio", "result": 0.142}
{"Structure (SMILES)": "Cn1ncc2cc(-c3cncc(Cl)c3N3CCC4(CCNC4=O)CC3)ccc21", "cell line": "LS174T", "assay": "gene expression, microarray, refers to: ALOX5 mRNA", "conditions": "concentration not given, 24 h", "how to read": "baseline: untreated cells", "measurement": "log2 fold change", "result": 2.49}
{"Structure (SMILES)": "O=C(Nc1ccc(Sc2ccc3c(/C=C/c4ccccn4)n[nH]c3c2)cc1)Nc1ccc(F)c(F)c1", "cell line": "Ba/F3 TEL-VEGFR2", "assay": "cell growth, CCK-8", "measurement": "GI50", "result": "380 nM"}
{"Structure (SMILES)": "COc1cc(N2CCN(C(=O)CCOCCNC(=O)[C@@H]3CCCN3)CC2)ccc1Nc1ncc(Cl)c(Nc2ccccc2P(C)(C)=O)n1", "cell line": "H3122", "assay": "annexin V-FITC/PI flow cytometry", "conditions": "500 nM, 24 h", "measurement": "late apoptotic cells", "result": "2.68% and 2.19% and 2.22%"}
{"Structure (SMILES)": "Fc1ccc(Nc2nc(NC3CCCCC3)c3cc(C(F)(F)F)ccc3n2)cc1F", "cell line": "transfected HEK293 cells", "assay": "β-arrestin2 recruitment, negative allosteric modulator, BRET", "conditions": "30 min pre-incubation, β1AR ECL1 chimera, with: isoproterenol 1 µM", "how to read": "baseline: isoproterenol alone", "measurement": "Imax", "result": "0.9%"}
{"Structure (SMILES)": "COc1ccccc1-c1ccncc1C(=O)Nc1nnc(OCc2ccc(Cl)cc2)s1", "cell line": "PEO1 BRCA2-mutant ovarian cancer", "conditions": "0.5 µM, with: olaparib 0.125 µM", "measurement": "colony survival", "result": "21.5% and 0%"}
{"Structure (SMILES)": "O=C(CC(=O)Nc1ccc2[nH]nc(/C=C/c3ccccn3)c2c1)Nc1cccc(F)c1", "cell line": "Ba/F3 TEL-VEGFR3", "assay": "cell growth, CCK-8", "measurement": "GI50", "result": "2000 nM"}
{"Structure (SMILES)": "CO[C@@H]1[C@@H](OC(N)=O)[C@@H](O)[C@H](Oc2ccc3c(O)c(NC(=O)c4ccc(O)c(CC=C(C)C)c4)c(=O)oc3c2C)OC1(C)C", "cell line": "HCT-116 parental", "conditions": "50 µM", "how to read": "baseline: untreated", "measurement": "colony survival", "result": "81.2%"}
{"Structure (SMILES)": "O=C(Nc1nnc2c1c(-c1ccc(Cl)cc1)nc1sc(=Cc3ccco3)c(=O)n12)c1ccccc1 (mixture of isomers)", "cell line": "TK-10", "assay": "SRB", "conditions": "10 µM, NCI60 single-dose screen", "how to read": "baseline: untreated", "measurement": "cell growth", "result": "51.7%"}
{"Structure (SMILES)": "COc1cc(N2CCN(C(=O)C3CCCN3)CC2)ccc1Nc1ncc(Cl)c(Nc2ccccc2P(C)(C)=O)n1 (centres unmarked)", "cell line": "NCI-H3122", "assay": "flow cytometry", "conditions": "500 nM, 24 h", "measurement": "G2 phase cells", "result": "6.7% and 5.12% and 5.45%"}
{"Structure (SMILES)": "O=C(N1CCCC1)n1cc(-c2ccc(-c3ccccc3)cc2)nn1", "cell line": "mouse T cells", "assay": "N-terminal labelling proteomics, refers to: S100A4 N-terminal peptides", "conditions": "0.001 µM, 6 h", "how to read": "baseline: DMSO", "measurement": "SILAC ratio", "result": 1.05}
{"Structure (SMILES)": "Cc1ccc(-n2cc(CSc3nc4ccccc4n3Cc3cn(-c4ccc(C)cc4)nn3)nn2)cc1", "cell line": "MDA-MB-231", "assay": "MTT", "conditions": "7.81 ppm", "measurement": "viability", "result": "39.4%"}
{"Structure (SMILES)": "CCC(=CCc1c(O)cc2c(c1O)C(=O)CC(c1ccc(O)cc1)O2)CC (centres unmarked)", "cell line": "HeLa", "assay": "annexin V/PI staining", "conditions": "range over 12 to 48 µM", "measurement": "necrotic cells", "result": "≤ 4.61%"}
{"Structure (SMILES)": "COC(=O)c1cc(NC2=NC(=O)C(=Cc3ccc(N(C)C)cc3)S2)ccc1OC(C)=O", "cell line": "MCF7", "assay": "refers to: RECQL mRNA", "conditions": "0.81 µM (IC50), 24 h", "how to read": "baseline: DMSO", "measurement": "fold change", "result": 0.212}
{"Structure (SMILES)": "Cc1cc(Cl)cc(-c2ccnc3cc(CN4C(=O)C5C(C4=O)C5(C)C)sc23)c1C[C@@H]1CNCCO1 (some centres unmarked)", "cell line": "CHP-212 resistant", "assay": "PI flow cytometry", "conditions": "1 µM, 24 h", "measurement": "G2/M phase cells", "result": "13%"}
{"Structure (SMILES)": "O=C(Nc1nncs1)c1cccc([C@@H]2C[C@H]2NC2CCC2)c1", "cell line": "SET-2", "assay": "cell growth, CellTiter-Glo", "conditions": "1 µM, 7 d", "how to read": "baseline: vehicle", "measurement": "relative growth", "result": "97.3% and 77.6% and 83.7%"}
{"Structure (SMILES)": "CCCCCCCCCCCCCCCC(=O)OCC(CSC[C@H](N)C(=O)N[C@@H](CO)C(=O)N[C@@H](CCCCN)C(=O)N[C@@H](CCCCN)C(=O)N[C@@H](CCCCN)C(=O)N[C@@H](CCCCN)C(=O)NCCCCCC(=O)N[C@@H](CCCCN)C(=O)N[C@@H](CC(C)C)C(=O)N[C@H](C(=O)N[C@@H](Cc1ccccc1)C(=O)N[C@@H](Cc1ccccc1)C(=O)N[C@@H](Cc1ccc2ccccc2c1)C(=O)O)C(C)C)OC(=O)CCCCCCCCCCCCCCC (some centres unmarked)", "cell line": "BV-2", "assay": "Western blot, refers to: MARCO", "conditions": "concentration not given", "how to read": "baseline: control", "measurement": "relative protein level", "result": 3.11}
{"Structure (SMILES)": "CCCCCCCCN(CCC(=O)Nc1ccccc1)C(=O)c1cccn1C", "cell line": "progeroid mouse fibroblasts, Lmna G609G/G609G", "assay": "MTT", "conditions": "2 µM, 72 h", "how to read": "baseline: vehicle-treated wild type", "measurement": "viability", "result": "74 ± 9%"}
{"Structure (SMILES)": "O=C(Nc1ccc(Sc2ccc3c(/C=C/c4ccccn4)n[nH]c3c2)cc1)C1CCCN1 (centres unmarked)", "cell line": "Ba/F3 TEL-VEGFR2", "assay": "cell growth, CCK-8", "measurement": "GI50", "result": "610 nM"}
{"Structure (SMILES)": "COc1ccc(O)cc1-c1c[nH]c2ncc(-c3cncc(C(=O)N(C)C)c3)cc12", "cell line": "K562", "assay": "inhibitor, Western blot", "conditions": "concentration not given, 6 h, normoxia", "measurement": "CRKL and STAT5 phosphorylation", "result": "inhibited"}
{"Structure (SMILES)": "CCCCCCCCCCCC(=O)N[C@@H](CO)C[C@@H](O)c1cccc(CCCCCC)c1", "cell line": "HeLa", "assay": "CERT activity, HPLC-MS/MS lipidomics, refers to: hexosylceramide 24:1", "conditions": "1 µM, 24 h, not cell-number normalised", "measurement": "hexosylceramide level", "result": "19300 pmol/sample and 14900 pmol/sample and 17700 pmol/sample"}
{"Structure (SMILES)": "CCN(C(=O)c1cc(F)ccc1Oc1nncnc1N1CCC2(C1)CN([C@H](CCCN(C)CCOC)C(C)C)C2)C(C)C", "cell line": "PLC-PRF-5", "assay": "cell growth or viability", "conditions": "7 days", "measurement": "GI50", "result": "> 10000 nM"}
{"Structure (SMILES)": "CNS(=O)(=O)Nc1nccc(Cc2c(C)c3ccc(Oc4ncccc4F)cc3oc2=O)c1F", "cell line": "HT-144", "assay": "cell viability", "conditions": "7 days", "measurement": "IC50", "result": "0.00382 µM"}
{"Structure (SMILES)": "Cc1ncsc1-c1ccc(C(C)NC(=O)C2CC(O)CN2C(=O)C(NC(=O)CCCCCCCCCCN2CCCC(Nc3ncc(Cl)c(Nc4ccccc4S(=O)(=O)C(C)C)n3)C2)C(C)(C)C)cc1 (centres unmarked)", "cell line": "22Rv1", "assay": "RNA-seq, refers to: TMEM121 mRNA", "conditions": "concentration not given", "how to read": "baseline: DMSO", "measurement": "log2 fold change", "result": -1.94}
{"Structure (SMILES)": "COc1cccc(OC)c1-c1cc(C(=O)NC2(C(=O)O)C3CC4CC(C3)CC2C4)nn1-c1ccc(C(=O)N(C)CCCN(C)CCCN(C)C(=O)[C@H](CCCCNC(=O)[C@H](CC(C)C)NC(=O)C2OC2C(=O)O)NC(=O)CN2CCN(CC(=O)[O-])CCN(CC(=O)[O-])CCN(CC(=O)[O-])CC2)cc1C(C)C.[177Lu+3] (mixture of isomers)", "cell line": "HT-29", "conditions": "concentration not given, 240 min", "how to read": "baseline: added activity", "measurement": "surface-bound fraction", "result": "3.3 ± 0.23%"}
{"Structure (SMILES)": "CN1CCCNC(=O)c2cccc(c2)C(=O)NCCCN(C)CCCNc2cccc3c2C(=O)c2cccc(c2C3=O)NCCC1", "cell line": "SAS", "assay": "RNA-Seq, refers to: LRP8 mRNA", "conditions": "1 µM, 6 h", "how to read": "baseline: untreated cells", "measurement": "log2 fold change", "result": -1.13}
{"Structure (SMILES)": "COc1ccc(NC(=O)c2ccc3[nH]c(-c4ccc(N(C)C)cc4)nc3c2)cn1", "cell line": "HCT116", "assay": "IncuCyte", "conditions": "concentration not given, 20 h", "measurement": "dead cell to confluence ratio", "result": "97.8 and 400 and 219"}
{"Structure (SMILES)": "CCN(CC)CC(=O)Nc1cccc(-n2cc(-c3ccc4ccc(-c5cn(-c6cccc(NC(=O)CN(CC)CC)c6)nn5)cc4c3)nn2)c1", "cell line": "RCC4", "assay": "PCR angiogenesis array, refers to: IFNG", "conditions": "5 x IC50, 4 h, normoxia", "how to read": "baseline: untreated", "measurement": "fold regulation", "result": 1.06}
{"Structure (SMILES)": "CC(C)c1ccc(N(C)c2ccc3c(c2)OCC[C@H]3CNc2cnccc2C(=O)O)cc1", "cell line": "HT-144", "assay": "cell growth or viability, ATP luminescence", "conditions": "7 days", "measurement": "IC50", "result": "≥ 10 µM"}
{"Structure (SMILES)": "CCOc1cncc(-c2ccc(NC(=O)C3(c4ccnc(NS(=O)(=O)C5CC5)n4)CCOCC3)nc2)n1", "cell line": "NCI-H727", "assay": "cell growth or viability, ATP luminescence", "conditions": "72 h", "measurement": "IC50", "result": "10 µM"}
{"Structure (SMILES)": "CNC(NN=Cc1ccc([N+](=O)[O-])o1)=[S+][Au-][Cl]", "cell line": "CAKI-1", "assay": "annexin V/PI flow cytometry", "conditions": "10 µM, 72 h", "measurement": "cell fraction ANV+/PI−", "result": "17.4 ± 1.9%"}
